Results pooled from the literature.
A part holds a random share of what one study measured. Changes are numbered by the printed parent chain.

Set 1 — technique: RNA Bind-n-Seq; form: RNA; sample: in vitro; concentration: 365 nM; reference: no-protein control; reading: higher = stronger binding
Target: RNA binding protein fox-1 homolog 2, RRM domain, GST-SBP tag (RBFOX2, Homo sapiens, UniProt O43251-10, residues 100-194)
Setting: natural RNA segment, single round, ends assumed
Construct (chain): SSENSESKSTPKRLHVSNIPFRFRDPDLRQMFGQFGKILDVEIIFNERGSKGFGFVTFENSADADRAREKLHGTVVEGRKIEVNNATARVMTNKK
Oligonucleotide	RBNS enrichment (R)
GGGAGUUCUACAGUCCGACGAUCUGCUGUGUAUUUUGAUUUCCUGUGUAUGCAAAUGUGUGUAUUUACCAUUGUGUAGGGGGCUGUGUCUGAUCUUGGUGUUCAAAACAGAACUGUAUUUUUGCCUUUAAAAUUGGAAUUCUCGGGUGCCAA	1.34
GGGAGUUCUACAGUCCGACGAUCAGAUUUAACAAAUCACUUCCUUCAUCCUUGUUGUUAUGGAAACCGUUGCCAGAGCUGGAAGUUUCCACAGGCUGCUGGAGCUAGACAACAAUUCAGACAGAAAGGGAAAGUGGAAUUCUCGGGUGCCAA	0.344
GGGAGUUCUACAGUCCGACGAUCACAAUCUGUAGGCUUUAAGAAUUGCUUUUAAACCUUUUUAAGUGAUAAACUCUUGAAGUGGUCUUAAGGUUAGCAAAUAAUUGUCUGUAUUAAACAUGGCGUUAUUUAAGUGGAAUUCUCGGGUGCCAA	0.374
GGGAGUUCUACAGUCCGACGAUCUCACCACCAGCAUUCUCUGCCUGUGGGGUUGUGGGGCUGGUGCUUUCUCCAUUUCUGAGGGUCAGGAUGGCCAAGCAUGGAUUAACACUAGGAGAGUGCAGAGCGCAGCAUGGAAUUCUCGGGUGCCAA	14
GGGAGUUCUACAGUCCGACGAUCUUGAGGAUUUAUGUAUUAGGCCACUUACUUGGUUGGCAAGUGCAGGAACUCAGUUAAAAUGCAGUUGAAGAAUGUCAUCUCCCGAAUUGCUGUCACUUUGGCGAGGGAGUUGGAAUUCUCGGGUGCCAA	0.932
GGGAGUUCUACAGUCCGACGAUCCUCCAGAGGGCUUCCUGCCACAGAAGUGCUGCCAAGCAGAAGAACCUGUGCCAACUGUGGAGUGGGGAGGCAGGGCCUGAACCCUCAAUCCCUGCAGCCUAGCCUCCCCAUGGAAUUCUCGGGUGCCAA	0.351
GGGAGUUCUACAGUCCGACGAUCAAGCUGUGACUGUGCCUGUGAGCGCAGGUGAUGCCACCACCCAGCCGCCCUGUGGACUCCUGGGGCUGGUGCCAGUGCCCCAGGCCUGUGGGUGAGGGGCUCAAGGCCCCUGGAAUUCUCGGGUGCCAA	0.344
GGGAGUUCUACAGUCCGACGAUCUAUUCCCUGAGAUUACAGAAGUACCCAGAAGUGUCUGGGAUCCCUGUCACAUCUGUGUCAUGUUGUUAUUUGAAGCAUCAGACUUUAUUACUAUGCUAGGUCCUCACUACUGGAAUUCUCGGGUGCCAA	0.447
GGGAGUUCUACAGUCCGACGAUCUUUUGUUUUUUGUUUUCUUUUUCCUAGGGGACAAGCAUGGGUGUUUGAUUUCAGAAAUCAGUACCUGGCGAGAUUUUUGUCUCAAAACGACUAUUUGAAUUUCAAGAACUUGGAAUUCUCGGGUGCCAA	0.329
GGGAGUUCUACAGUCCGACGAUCGGGUUCCCCAGAGUCUUCCUAGGUAUCUCUGGGAACCAGCAGAAGGAAUUUUCACCUAAGAGGGAUAACUUGUUGCUUCCAAUGAAUGGCUCCCACUCUCGUGGGUGCAAUGGAAUUCUCGGGUGCCAA	0.368
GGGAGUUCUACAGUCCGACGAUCUAGAGAGUAGGUACCCAGGAGUGGAGAUGGAAGGAGUCUGAACUUUCCUGUGGCCAUGCUGACUUACACUAAGAUUCUACCCCAGAAAACAAUUCUUUAGCAGUGGACAGUGGAAUUCUCGGGUGCCAA	0.455
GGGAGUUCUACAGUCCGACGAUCUUAGUUAGAAAUACAGGCUACAGUGUUUGGUCAGAAUUUAUUCGAAUGUCUUUAUUUUUAAUACCAACAUCAGCAUAAAUCUAUUUUUGCUAGUAGAUCAAAGCUAUUUUUGGAAUUCUCGGGUGCCAA	0.767

Set 2 — technique: RNA Bind-n-Seq; form: RNA; sample: in vitro; concentration: 20 nM; setting: 6-mer, flanks averaged, single round; with: 150 mM KCl; reference: input library; reading: higher = stronger binding
Target: TAR DNA-binding protein 43, full length, His tag (TARDBP, Homo sapiens, UniProt Q13148, residues 1-414)
Oligonucleotide	6-mer enrichment (R)
UCCACU	0.571
CAAACC	0.587
CGAUCG	0.804
GUGUCG	1.32
GUCAAC	0.677
GAUUAC	0.601
UGGCAC	0.917
CGGCUG	1.39
UUGUGA	0.826
UGGGGG	7.96
GUGGAU	1.4
GUAUCA	0.632
CUACGG	0.981
AGCCUG	0.803
AAGUCU	0.578
CCUCAA	0.594
GUUCAG	0.821
GCACGC	0.964
CAAGCA	0.687
AUCAUU	0.55
ACUCUA	0.575

Set 3 — technique: RNA Bind-n-Seq; form: RNA; sample: in vitro; concentration: not given; reference: input RNA pool; reading: higher = stronger binding
Target: RING finger protein unkempt homolog, zinc fingers 1-6, GST-SBP tag (UNK, Homo sapiens, UniProt Q9C0B0, residues 30-357)
UniProt Q9C0B0, sequence (30-357, looked up): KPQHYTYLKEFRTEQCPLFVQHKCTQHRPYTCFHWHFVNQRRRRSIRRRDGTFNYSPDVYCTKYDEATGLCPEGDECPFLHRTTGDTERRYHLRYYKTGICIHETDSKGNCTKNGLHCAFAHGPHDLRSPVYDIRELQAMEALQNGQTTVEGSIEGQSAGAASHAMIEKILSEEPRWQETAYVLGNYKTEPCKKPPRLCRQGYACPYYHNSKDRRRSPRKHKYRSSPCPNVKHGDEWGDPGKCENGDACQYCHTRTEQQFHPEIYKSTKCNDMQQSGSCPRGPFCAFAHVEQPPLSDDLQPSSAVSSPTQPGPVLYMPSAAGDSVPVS
Setting: RNA with constant flanks, human-mouse chimeric sites, ends assumed
Oligonucleotide	bound/input enrichment [ratio]
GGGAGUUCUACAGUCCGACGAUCCUGUGUGUGCUGAAUAAAUGGCUUGUAAAGAAGUUUUUCCAAGCUGUAACCCAUGCUGUUAUUAUAGUUGCUGCAAAAUGUUCUUCCUAUUGAUGUUUUUAUUUGUUCUGACUCUCCCUCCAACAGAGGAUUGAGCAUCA	0.766
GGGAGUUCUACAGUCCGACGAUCACAGUUAUACACUGUUGUUUCAUUUUCAUAUAUUCUUGUAGUGUCUGCUUGCCUGUGACUUCUGGUAAAAUAAAAUAAGCCUUUGAAAAUAUUUUAGCAUGGUAUUUUUCUAAAAAUAAACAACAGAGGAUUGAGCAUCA	1.16
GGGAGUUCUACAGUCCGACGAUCAAAGCCCAAGUAUUUUGAAAAAACUCGAACAGAUUUGACAAGGGUAGCCAGCUUGGAGUCUAGCAACUUUGCCAAUGGUUUACCAAUCUGGGGGCUUGUUUUUCUUUUCUUCUUUCAAAUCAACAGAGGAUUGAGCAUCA	0.346
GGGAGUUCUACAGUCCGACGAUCCGGAGCCCCUCCCUCUCACAGGCCCAAGAUAUAACCCACCAGUGCCUUUUGUCUUCCUGUCAGCUCUGUCAAUCACGCCUGUCCUCUCACGCCCACACCAAGUGCCCCCACCCCUAAGGGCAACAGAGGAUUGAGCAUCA	0.407
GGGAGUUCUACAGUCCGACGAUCAAAGUGAUGACUAUGUUUGUCCAACGACAGGUAUUUUCUGAGAACAAAGAUGAGAUUGCGUUAGUCCUCUAUGGCACAGAUGGCACUGAUAAUGCCCUUUCUGGUGGGGACCAGUAUCAGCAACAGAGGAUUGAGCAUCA	0.127
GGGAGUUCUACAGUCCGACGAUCGGCUGCUGGUGACUGUCGGGAGCCGUCUGGAGUUCCCCCGGAACCUGGGCCAGACUAAUUUUAGAAAAUGCCAAGUAGGAAGUUUGUUGAGGGUGAAGUGGUCAGAGGCCGAUGGCCUGGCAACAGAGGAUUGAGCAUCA	2.31
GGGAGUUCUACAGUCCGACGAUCAUAUUUCAUAUUGCAAAGAUGUUUACAAGUAUUUUAAUUUAAGUUCAGUGAACUUUUUUGUAGCUGGGUUAAAUCUUUUUAUUUUUAUAUGGCCUUAUGGCAAAGAAACACUGUAUUUUUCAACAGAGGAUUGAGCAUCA	1.19
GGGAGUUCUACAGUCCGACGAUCGGUGGGGUGGUCAUUGCCGUUUGAGCUGCUGAUUUUCAUGAGUCGCCCAUUCAGAACUCGUGUAGGGUUGACAAUGUGGGGGGGUGGGAAAUCUAGCUUAUUCUUUUAUUUUCAAGUCCACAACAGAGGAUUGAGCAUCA	5.43
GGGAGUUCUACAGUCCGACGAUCAUCAAAUAUUUUGGGGACAUCAUUAGUGUGGGACAGAGACUGUUGCAAGGAGCUCGGAUCUUAGGGAUUCCAGUUAUCAUAACGGAACAAUACCCCAAAGGUCUUGGCAGCACCGUUCAACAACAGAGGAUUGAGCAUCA	0.145
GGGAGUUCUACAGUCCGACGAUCUUGAAAACUGAUUCAAGCAAGUUUGAAUAUCACAAUGUUAGCUUUCUAAUUCCAUAAAGAUAGUUUUUUUUUACAGUUUAUAAUCUGACAUCACCCCAGCGCCAUUUGUAAAGAGCAACUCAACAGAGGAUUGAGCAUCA	9.16
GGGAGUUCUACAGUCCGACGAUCUUUGUAAUAUCUGUAAAAAAGGUUUCUCCCCUACUGUCAAAAAAUAUGCAUGUAUAGUAAUUAGGACUUCAUUCCUCCAUGUUUUCUUCCCUUAUCUUACUGUCAUUGUCCUUAAACCUUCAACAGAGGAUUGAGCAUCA	1.03

Set 4 — target: CCNB1, cyclin fold, Cln2 fusion (human); technique: yeast growth competition, sequencing; sample: yeast; setting: weak parent motif; reference: not given; reading: higher = stronger binding
Starting sequence: CDKN1B docking peptide (human); PSACRNLFGPVDH
Change	normalised enrichment score
ASACRNLFGPVDH [P1A]	0.397
PSACRNLFGPGDH [V11G]	-0.0729
PRACRNLFGPVDH [S2R]	0.664
PSACRNIFGPVDH [L7I]	0.736
PSACRNVFGPVDH [L7V]	0.879
LSACRNLFGPVDH [P1L]	0.593
PSACRNLFGPVDR [H13R]	0.504
PSACRNLFGVVDH [P10V]	0.37
PSVCRNLFGPVDH [A3V]	1.94
PSACRNLFRPVDH [G9R]	-0.303
PSACRNLFGAVDH [P10A]	0.167
PSGCRNLFGPVDH [A3G]	-0.0103
PSACRNLFGGVDH [P10G]	0.532
PSACRNHFGPVDH [L7H]	0.751
PSMCRNLFGPVDH [A3M]	0.992
QSACRNLFGPVDH [P1Q]	0.757
PSACRNLFGCVDH [P10C]	0.318
PSACRNLFGPVTH [D12T]	0.363
ISACRNLFGPVDH [P1I]	0.231
PSACRNLFMPVDH [G9M]	0.625

Set 5 — technique: universal PBM; form: double-stranded DNA, one strand shown; sample: in vitro; concentration: not given; reading: higher = stronger binding
Target: Sal-like protein 4, full length isoform B (SALL4, Homo sapiens, UniProt Q9UJQ4-2, residues 1-616)
Setting: 8-mer, flanks averaged, mean of replicates
Oligonucleotide	E-score
CGCATCCC	-0.222
CACTTCTC	-0.146
CTGCTCAC	-0.236
AGAAACTA	0.079
CCGACGCG	-0.37
AACAATCC	0.161
GGAAATCC	-0.104
AACGCACA	0.092
CCAGCCGA	-0.312
AACGCTGT	0.0207
CGAATTAC	0.0728
CACAGCTA	-0.0487
ACGTTTAC	0.0722
ATAAAACA	0.349
GAACCAAA	-0.142
ACACTTCT	-0.106
AACTAGGC	-0.0517
CTAGGTAC	0.0252
ATATTAAA	0.433
ACAAGTTC	-0.0638
CGTCTATC	0.0624
TAGTAAAA	0.318
AGCTTGTC	-0.0925

Other studies, line by line
Molecule	target	test	system	conditions	how to read	measurement	result
PhoQ, residues 284 288 289 292 302 303 WVSSAF	PhoP, residues 12 14 15 18 19 AQCLL (Escherichia coli, UniProt P23836)	Sort-seq, item: YFP reporter	E. coli	PhoQ-PhoP variant library, with: 10 µM Mg2+	reference: high Mg2+ state, higher = stronger signaling	fold induction	9.11

For quick reference, copied from above (set 2):
Oligonucleotide	6-mer enrichment (R)
UCCACU	0.571
GUCAAC	0.677
UGGCAC	0.917
UGGGGG	7.96
GCACGC	0.964
ACUCUA	0.575
AGCCUG	0.803
GUGUCG	1.32
GUUCAG	0.821
CUACGG	0.981
GAUUAC	0.601
AUCAUU	0.55
GUGGAU	1.4
